Measurements collected from several papers.
Lines come from different studies, so protocols differ. Several values in a cell are separate wells, animals, samples, runs or records. ± gives the spread as reported.
UniProt P51575, sequence (whole entry, unmodified, looked up): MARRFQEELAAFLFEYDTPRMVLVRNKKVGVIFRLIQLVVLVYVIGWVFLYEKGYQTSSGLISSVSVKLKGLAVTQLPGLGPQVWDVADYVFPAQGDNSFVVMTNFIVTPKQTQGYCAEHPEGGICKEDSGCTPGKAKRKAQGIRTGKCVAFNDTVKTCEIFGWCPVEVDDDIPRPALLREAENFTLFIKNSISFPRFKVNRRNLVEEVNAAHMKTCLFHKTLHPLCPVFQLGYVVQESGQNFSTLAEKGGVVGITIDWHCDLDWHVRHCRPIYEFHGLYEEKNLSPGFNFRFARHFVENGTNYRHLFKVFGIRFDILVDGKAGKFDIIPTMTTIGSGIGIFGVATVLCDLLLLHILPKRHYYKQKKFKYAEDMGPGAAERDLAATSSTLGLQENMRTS
UniProt P03146, sequence (1-149, looked up): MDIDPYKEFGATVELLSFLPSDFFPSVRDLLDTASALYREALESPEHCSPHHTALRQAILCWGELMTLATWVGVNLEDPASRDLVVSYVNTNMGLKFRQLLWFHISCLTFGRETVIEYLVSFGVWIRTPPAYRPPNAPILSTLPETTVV
UniProt Q15831, sequence (whole entry, looked up): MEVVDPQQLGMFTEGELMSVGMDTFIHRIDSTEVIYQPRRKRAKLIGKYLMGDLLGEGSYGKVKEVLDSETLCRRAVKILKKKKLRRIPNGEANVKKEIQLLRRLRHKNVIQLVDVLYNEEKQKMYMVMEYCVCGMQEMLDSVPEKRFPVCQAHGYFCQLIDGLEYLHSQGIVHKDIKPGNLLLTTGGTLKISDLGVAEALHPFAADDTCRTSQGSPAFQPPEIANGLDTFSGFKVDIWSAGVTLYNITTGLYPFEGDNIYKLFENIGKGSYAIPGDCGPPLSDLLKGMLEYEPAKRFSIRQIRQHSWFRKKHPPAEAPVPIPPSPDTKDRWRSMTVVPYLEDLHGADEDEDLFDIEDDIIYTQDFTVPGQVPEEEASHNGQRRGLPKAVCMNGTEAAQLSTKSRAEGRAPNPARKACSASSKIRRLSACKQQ
UniProt P02769, sequence (whole entry, looked up): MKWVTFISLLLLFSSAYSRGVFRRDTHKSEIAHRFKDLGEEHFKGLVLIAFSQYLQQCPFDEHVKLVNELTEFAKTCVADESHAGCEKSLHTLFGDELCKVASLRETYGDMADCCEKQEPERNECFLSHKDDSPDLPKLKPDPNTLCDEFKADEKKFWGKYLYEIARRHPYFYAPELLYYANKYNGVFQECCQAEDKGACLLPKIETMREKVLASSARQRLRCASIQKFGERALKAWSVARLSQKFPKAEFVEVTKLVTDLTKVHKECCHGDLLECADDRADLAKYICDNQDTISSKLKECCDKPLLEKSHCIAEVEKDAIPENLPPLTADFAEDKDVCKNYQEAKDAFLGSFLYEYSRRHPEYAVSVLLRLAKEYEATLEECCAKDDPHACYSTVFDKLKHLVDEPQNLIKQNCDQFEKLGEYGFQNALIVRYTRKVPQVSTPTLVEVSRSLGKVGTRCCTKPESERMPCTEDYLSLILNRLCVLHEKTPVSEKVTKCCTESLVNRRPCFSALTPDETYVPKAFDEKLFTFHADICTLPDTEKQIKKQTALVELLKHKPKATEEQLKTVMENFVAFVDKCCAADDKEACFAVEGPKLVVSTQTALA
UniProt Q9UQB9, sequence (whole entry, looked up): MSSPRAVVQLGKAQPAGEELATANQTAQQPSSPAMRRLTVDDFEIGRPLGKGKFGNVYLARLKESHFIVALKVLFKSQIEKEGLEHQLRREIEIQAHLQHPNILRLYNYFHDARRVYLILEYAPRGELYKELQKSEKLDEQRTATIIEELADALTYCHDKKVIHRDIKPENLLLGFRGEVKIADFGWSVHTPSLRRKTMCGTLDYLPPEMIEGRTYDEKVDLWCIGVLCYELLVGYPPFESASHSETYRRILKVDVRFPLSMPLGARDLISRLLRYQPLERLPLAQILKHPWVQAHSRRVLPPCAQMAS
UniProt Q9PHN5, sequence (whole entry, looked up): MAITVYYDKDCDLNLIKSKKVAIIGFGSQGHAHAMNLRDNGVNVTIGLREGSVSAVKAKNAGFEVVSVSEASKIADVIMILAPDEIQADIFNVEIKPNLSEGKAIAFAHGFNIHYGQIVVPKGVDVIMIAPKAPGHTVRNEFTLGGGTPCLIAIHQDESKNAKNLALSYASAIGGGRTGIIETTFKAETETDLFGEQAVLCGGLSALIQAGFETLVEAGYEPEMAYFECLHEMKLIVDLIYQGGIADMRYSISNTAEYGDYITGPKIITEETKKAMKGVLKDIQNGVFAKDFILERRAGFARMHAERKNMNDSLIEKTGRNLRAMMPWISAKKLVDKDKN

| SMILES | target | assay | system | setting | how to read | endpoint | result |
| --- | --- | --- | --- | --- | --- | --- | --- |
| Cc1cc(Nc2cc(N3CCN(C)CC3)nc(Sc3ccc(NC(=O)C4CC4)cc3)n2)[nH]n1 | Aurora kinase C (AURKC, Homo sapiens, UniProt Q9UQB9) | kinase activity |  | 0.03 µM | relative to: control | remaining activity | 15% |
| O=C1NC(=O)/C(=C/c2ccc(-c3ccc(F)cc3O)o2)S1 | STK11 (Homo sapiens, UniProt Q15831) | enzyme activity |  | 10 µM |  | remaining activity | 52% |
| CC[C@H](C)[C@@H]1NC(=O)[C@H](Cc2ccc(O)cc2)NC(=O)CSC[C@@H](C(N)=O)NC(=O)CNC(=O)[C@H](Cc2c[nH]cn2)NC(=O)[C@H](CCCNC(=N)N)NC(=O)[C@H](CC(N)=O)NC(=O)[C@@H]2CCCN2C(=O)[C@H](Cc2ccccc2)NC(=O)[C@H]([C@@H](C)O)NC(=O)CNC(=O)[C@H](CC(C)C)NC(=O)[C@@H]2CCCN2C(=O)[C@H]([C@@H](C)O)NC(=O)[C@H](CCCCN)NC1=O | Vacuolar protein sorting-associated protein 29 (VPS29, Homo sapiens, UniProt Q9UBQ0) | binding, ITC |  | 25 °C, protein alone |  | ΔH | -13 ± 1.1 kcal/mol |
| O=C(Nc1cc(F)c(F)c(F)c1)c1ccc(F)c(S(=O)(=O)N2CCC(O)CC2)c1 | Capsid protein, residues 1-149 (C, Hepatitis B virus genotype D subtype ayw, UniProt P03146) | capsid assembly, size exclusion chromatography |  | 10 µM, overnight, added: 5 µM Cp149, 150 mM NaCl |  | capsid to dimer ratio | 0.3 |
| COc1cc(Nc2ncc3c(n2)-c2ccc(Cl)cc2C(c2c(F)cccc2OC)=NC3)ccc1C(=O)O | PKC beta II | inhibitor, biochemical kinase |  | 1 µM |  | remaining activity | 104% |
| CC[C@H](C)[C@H](NC(=O)[C@H](Cc1ccccc1)NC(=O)[C@H](CCC(=O)O)NC(=O)[C@H](CCCNC(=N)N)NC(=O)[C@H](C)NC(=O)[C@H](C)NC(=O)[C@H](CCC(N)=O)NC(=O)[C@H](CCC(=O)O)NC(=O)[C@H](CCC(=O)O)NC(=O)[C@H](CC(C)C)NC(=O)[C@H](Cc1ccc(O)cc1)NC(=O)[C@H](CO)NC(=O)[C@H](CO)NC(=O)[C@@H](NC(=O)[C@H](CC(=O)O)NC(=O)[C@H](CO)NC(=O)[C@@H](NC(=O)[C@H](Cc1ccccc1)NC(=O)[C@@H](NC(=O)CNC(=O)[C@H](CCC(=O)O)NC(=O)[C@H](C)NC(=O)CCc1cnc[nH]1)[C@@H](C)O)[C@@H](C)O)C(C)C)C(=O)N[C@@H](C)C(=O)N[C@@H](Cc1c[nH]c2ccccc12)C(=O)N[C@@H](CC(C)C)C(=O)N[C@H](C(=O)N[C@@H](CCCNC(=N)N)C(=O)NCC(=O)N[C@@H](CCCNC(=N)N)C(=O)N[C@@H](CCCCNC(=O)COCCOCCNC(=O)COCCOCCNC(=O)CC[C@H](NC(=O)CCCCCCCCCCCCCCCCC(=O)O)C(=O)O)C(=O)NCC(=O)NCC(=O)N[C@@H](CO)C(=O)N[C@@H](CCCCNc1c(NCCCCCN(O)C(=O)CCC(=O)NCCCCCN(O)C(=O)CCC(=O)NCCCCCN(O)C(C)=O)c(=O)c1=O)C(=O)NCC(=O)NCC(=O)N[C@@H](CO)C(=O)N[C@@H](CCCCNc1c(NCCCCCN(O)C(=O)CCC(=O)NCCCCCN(O)C(=O)CCC(=O)NCCCCCN(O)C(C)=O)c(=O)c1=O)C(=O)NCC(=O)NCC(=O)N[C@@H](CO)C(=O)N[C@@H](CCCCNc1c(NCCCCCN(O)C(=O)CCC(=O)NCCCCCN(O)C(=O)CCC(=O)NCCCCCN(O)C(C)=O)c(=O)c1=O)C(=O)O)C(C)C | GLP1R (Homo sapiens, UniProt P43220) | agonist, CRE luciferase reporter | BHK cells | Zr-loaded DFO conjugate, added: 1% HSA | relative to: parent peptide | fold potency loss | 2.3 |
| Nc1ncnc2c1ncn2[C@@H]1O[C@H](COP(=O)(O)CP(=O)(O)OP(=O)(O)O)[C@@H](O)[C@H]1O | P2X purinoceptor 1 (P2RX1, Homo sapiens, UniProt P51575, K136W) | calcium influx |  | 10 nM | relative to: ionomycin response | calcium influx | 0% and 2.42% and 1.73% |
| Cc1nc2[nH]c(=O)n(O)c(=O)c2s1 | Ketol-acid reductoisomerase (NADP(+)) (ilvC, Campylobacter jejuni subsp. jejuni serotype O:2, UniProt Q9PHN5) | slow-binding inhibitor | Campylobacter jejuni |  |  | koff | 0.00126 s⁻¹ |
| Cc1ncsc1-c1ccc(CNC(=O)[C@@H]2C[C@@H](O)CN2C(=O)[C@@H](NC(=O)C2(F)CC2)C(C)(C)C)c(OCCOc2ccc(CN3CCN(c4cc(-c5ccccc5O)nnc4N)CC3)cc2)c1 | SWI/SNF-related matrix-associated actin-dependent regulator of chromatin subfamily A member 4, bromodomain (SMARCA4, Homo sapiens, UniProt P51532) | ternary complex binding, TR-FRET competition |  | added: VCB complex |  | cooperativity factor alpha | 11 |
| NCC[C@H](O)C(=O)N[C@@H]1C[C@H](N)[C@@H](O[C@H]2O[C@H](CN)[C@@H](O)[C@H](O)[C@H]2O)[C@H](O)[C@H]1O[C@H]1O[C@H](CO)[C@@H](O)[C@H](N)[C@H]1O | Albumin (ALB, Bos taurus, UniProt P02769) | tryptophan fluorescence quenching |  | 10 to 60 µM, 310 K |  | Stern-Volmer quenching constant | 3.48 10³ M⁻¹ |

Repeated from above:
| SMILES | target | assay | system | setting | how to read | endpoint | result |
| --- | --- | --- | --- | --- | --- | --- | --- |
| CC[C@H](C)[C@@H]1NC(=O)[C@H](Cc2ccc(O)cc2)NC(=O)CSC[C@@H](C(N)=O)NC(=O)CNC(=O)[C@H](Cc2c[nH]cn2)NC(=O)[C@H](CCCNC(=N)N)NC(=O)[C@H](CC(N)=O)NC(=O)[C@@H]2CCCN2C(=O)[C@H](Cc2ccccc2)NC(=O)[C@H]([C@@H](C)O)NC(=O)CNC(=O)[C@H](CC(C)C)NC(=O)[C@@H]2CCCN2C(=O)[C@H]([C@@H](C)O)NC(=O)[C@H](CCCCN)NC1=O | Vacuolar protein sorting-associated protein 29 (VPS29, Homo sapiens, UniProt Q9UBQ0) | binding, ITC |  | 25 °C, protein alone |  | ΔH | -13 ± 1.1 kcal/mol |
